Measurements from different studies.
Each line is one published result; not all experiments were run side by side. ± gives the spread as reported.
Method: steady-state kinetics
B1: hdhb (Clostridium sardiniense, UniProt G9FRD6); chain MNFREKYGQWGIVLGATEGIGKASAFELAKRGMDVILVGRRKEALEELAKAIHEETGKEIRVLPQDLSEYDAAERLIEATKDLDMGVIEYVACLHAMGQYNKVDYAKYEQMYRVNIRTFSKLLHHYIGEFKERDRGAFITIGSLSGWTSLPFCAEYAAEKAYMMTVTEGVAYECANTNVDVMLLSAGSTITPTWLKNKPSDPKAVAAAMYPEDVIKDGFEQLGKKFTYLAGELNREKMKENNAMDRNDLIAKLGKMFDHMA
B2: TcA (Trypanosoma cruzi, UniProt Q4DRC4); chain MFIRLFAREEEGEKEGKICHMPREYEFAEKILFTEEEIRTRIKEVAKRIADDYKGKGLRPYVNPLVLISVLKGSFMFTADLCRALCDFNVPVRMEFICVSSYGEGLTSSGQVRMLLDTRHSIEGHHVLIVEDIVDTALTLNYLYHMYFTRRPASLKTVVLLDKREGRRVPFSADYVVANIPNAFVIGYGLDYDDTYRELRDIVVLRPEVYAEREAARQKKQRAIGSADTDRDAKREFHSKY
B3: putA E1012A (Rhodobacter capsulatus, UniProt D5AN87); chain MTDLSALGPKAKFAPEAEVLQALVAQAALPQPQLDRIAARGADLVARIRAEAKPSLMEHFLAQYGLSTREGVALMCLAEAMLRVPDTATIDALIEDKIAPSDWGKHLGTAASSLVNASTWALMLTGKVLDDGAGGIAGTLRGAMRRLGEPVIRAAVGQAMREMGRQFVLGETIEKALERAEKREAEGYTFSYDMLGEAALTAADAERYRLAYAQAITAIGKAATRGSIAANPGISIKLSALHPRYEVAQEARVMAELVPVVRDLARAAARAGIALHIDAEEQDRLALSLRVMAAVIADPETAGWEGFGAVVQAYGKRAGAAIDALAAMARAAGRRINIRLVKGAYWDAEMKRAQVEGHPGFPLFTSKTGTDVAYICLAAKLFGLNDCIYPQFATHNAHTVAAVLEMAAGRPFEFQRLHGMGARLHDIVLRETGGRCRIYAPVGAHRDLLAYLVRRLLENGANSSFVNQIVNESVPPAEVAACPFAALPTARAPRGLLAPADLFGAGRVNAQGFDLSDPEVLARIEAARDVTLPDAAPIVAGPVSGTLRPVRNPATGAVVAQVTEADAATVALALDAAQVWSAPAATRAAVLCRAADLYEENFGPIFAALAQEAGKTLGDAVSELREAVDFLRYYAAEGAADTRPPRGAVVAISPWNFPLAIFTGQVAAALMAGNAVLAKPAEQTPIIAALAVRLLHQAGVPETALQLLPGDGPTVGAALTRDPRVAGVVFTGSTETAQIIARAMAAHLAPGTPLIAETGGLNAMVVDSTALPEQAVRDVVASAFRSAGQRCSALRCLYVQDDIAPHLIGMLKGAMEELVSGDPARLSTDVGPVIDAEAKAGIETYLAANKARILHRSTAPEGGHFVAPALLQVGGIADLEREIFGPVLHLATFAAEDLPAVIAAINARGYGLTFGLHSRIDARVETVAETIRAGNIYVNRNQIGAVVGSQPFGGEGLSGTGPKAGGPLYLNRFYAPEPVVAVGGWTEAATPILPEARETQLDEIFLPGPTGALNRLTRHQRGPILCLGPGAEAASAQAAAVVALGGQAVQASGAVSPKALETLTPLAGVLWWGAAEMGRAYAQALAVRPGPLVPLITAKPDLAHVAHERHLCVDTTAAGGNAALLAG
B4: Tat (Mus musculus, UniProt Q8QZR1); chain WNVRPSDMSNKTFNPIRAIVDNMKVKPNPNKTVISLSIGDPTVFGNLPTDPEVTQAMKDALDSGKYNGYAPSIGYLSSREEVASYYHCPEAPLEAKDVILTSGCSQAIELCLAVLANPGQNILIPRPGFSLYRTLAESMGIEVKLYNLLPEKSWEIDLKQLESLIDEKTACLVVNNPSNPCGSVFSKRHLQKILAVAERQCVPILADEIYGDMVFSDCKYEPMATLSTNVPILSCGGLAKRWLVPGWRLGWILIHDRRDIFGNEIRDGLVKLSQRILGPCTIVQGALKSILQRTPQEFYQDTLSFLKSNADLCYGALSAIPGLQPVRPSGAMYLMVGIEMEHFPEFENDVEFTERLIAEQSVHCLPATCFEYPNFFRVVITVPEVMMLEACSRIQEFCEQHY
B5: Nudt8 (Mus musculus, UniProt Q9CR24); chain MLPDGLSAEDEQRCRQLLARTTARLRSRPAAAAVLVPLCLVRGVPALLYTLRSSRLVGRHKGEVSFPGGKCDPDDQDVIHTALRETQEELGLEVPKEHVWGVLQPVYDREKATIVPVLANVGPLDLQSLRPNLEEVDEVFEMSLAHLLQTQNQGYTHFCQGGHFSYTLPVFLHGPHRVWGLTAVITELTLKLLAPGFYQPSLAVPELPRG
B6: sacB S173A (Priestia megaterium, UniProt D5DC07); chain KGNDSKDFNNSYGISHITRDNMVKIPQQQNSDQFKVPAFDESTIKNIASAKGKNASGNTIDLDVWDSWPLQNADGTVATYHGYQIVFALAGDPKDSNDTSVYLFYKKAGDKSIDSWKNAGRVFKDSDKFVPNDPHLKNQTQEWAGSGTLTKDGKVRLFYTDYSGKQYGKQTLTTAQVNMSQPNDNTLKVDGVEDYKSIFDGDGKIYQTVQQFIDEGGYDTGDNHTLRDPHYIEDNGHKYLVFEANTGTEDGYQGEDSLYNRAYYGGNNPFFQSEKKKLLEGSNKEKASLANGALGIIELNDDYTLKKVMKPLITSNTVTDEIERANIFKKDGKWYLFTDSRGSKMTIDGIGQDDVYMLGYVSNTLTGKYKPLNDTGLVLHMDLDPNDKTFTYSHFAVPQTKGDNVVITSYMTNRGFYEDNHSTFAPSFLVNIDGSKTSVVKDRVLEQGQLTVDED
B7: enzyme (Halalkalibacterium halodurans, UniProt Q9KCN8); chain MLNVTQLQEATTFIQQQIETKPTIGLILGSGLGILADEIEQPVKVPYSDIPHFPVSTVQGHAGQLVIGMLEGKQVIAMQGRFHFYEGYSLEVVTFPVRVMKALGVEQIIVTNAAGGVNESFEAGDLMIIRDHINNMAQNPLIGPNDEAFGVRFPDMSNAYSERLRTLAKEKGNTLNLKLQEGVYVANTGPVYETPAEVRMIRKLGGDAVGMSTVPEVIVARHAGLEVLGISCISNMAAGILPQPLSHDEVIETTERVRQDFLNLVKAIVKDM
B8: ASRGL1 (Homo sapiens, UniProt Q7L266); chain 1 MNPIVVVHGGGAGPISKDRKERVHQGMVRAATVGYGILREGGSAVDAVEGAVVALEDDPEFNAGCGSVLNTNGEVEMDASIMDGKDLSAGAVSAVQCIANPIKLARLVMEKTPHCFLTDQGAAQFAAAMGVPEIPGEKLVTERNKKRLEKEKHEKGAQKTDCQKNLG; chain 2 TVGAVALDCKGNVAYATSTGGIVNKMVGRVGDSPCLGAGGYADNDIGAVSTTGHGESILKVNLARLTLFHIEQGKTVEEAADLSLGYMKSRVKGLGGLIVVSKTGDWVAKWTSTSMPWAAAKDGKLHFGIDPDDTTITDLP
B9: TylM1 H123A (Streptomyces fradiae, UniProt P95748); chain MAHSSATAGPQADYSGEIAELYDLVHQGKGKDYHREAADLAALVRRHSPKAASLLDVACGTGMHLRHLADSFGTVEGLELSADMLAIARRRNPDAVLHHGDMRDFSLGRRFSAVTCMFSSIGALAGQAELDAALERFAAHVLPDGVVVVEPWWFPENFTPGYVAAGTVEAGGTTVTRVSHSSREGEATRIEVHYLVAGPDRGITHHEESHRITLFTREQYERAFTAAGLSVEFMPGGPSGRGLFTGLPGAKGETR
B10: CstB (Staphylococcus aureus, UniProt G5ELA4); chain MFFKQFYDNHLSQASYLVGCQRTGEAIIIDPVRDLSKYIEVADSEGLTITQATETHIHADFASGIRDVAKRLNANIYVSGEGEDALGYKNMPSKTQFVKHGDIIQVGNVKLEVLHTPGHTPESISFLLTDLGGGSSVPMGLFSGDFIFVGDIGRPDLLEKSVQIKGSTEISAKQMYESVQNIKNLPDYVQIWPGHGAGSPCGKALGAIPISTIGYEKINNWAFNEIDETKFIESLTSNQPAPPHHFAQMKQVNQFGMNLYQSYDVYPSLDNKRVAFDLRSKEAFHGGHTKGTINIPYNKNFINQIGWYLDFEKDIDLIGDKSTVEKAKHTLQLIGFDKVAGYRLPKSGISTQSVHSADMTGKEEHVLDVRNDEEWNNGHLDQAVNIPHGKLLNENIPFNKEDKIYVHCQSGVRSSIAVGILESKGFENVVNIREGYQDFPESLK
B11: BaiA1 (Clostridium scindens, UniProt P07914); chain MKLVQDKITIITGGTRGIGFAAAKLFIENGAKVSIFGETQEEVDTALAQLKELYPEEEVLGFAPDLTSRDAVMAAVGTVAQKYGRLDVMINNAGITMNSVFSRVSEEDFKNIMDINVNGVFNGAWSAYQCMKDAKQGVIINTASVTGIYGSLSGIGYPTSKAGVIGLTHGLGREIIRKNIRVVGVAPGVVDTDMTKGLPPEILEDYLKTLPMKRMLKPEEIANVYLFLASDLASGITATTISVDGAYRP
B12: UCK2 (Homo sapiens, UniProt Q9BZX2); chain MAGDSEQTLQNHQQPNGGEPFLIGVSGGTASGKSSVCAKIVQLLGQNEVDYRQKQVVILSQDSFYRVLTSEQKAKALKGQFNFDHPDAFDNELILKTLKEITEGKTVQIPVYDFVSHSRKEETVTVYPADVVLFEGILAFYSQEVRDLFQMKLFVDTDADTRLSRRVLRDISERGRDLEQILSQYITFVKPAFEEFCLPTKKYADVIIPRGADNLVAINLIVQHIQDILNGGPSKRQTNGCLNGYTPSRKRQASESSSRPH

Molecule | substrate | conditions | kcat/Km
B1 (hdhb) | NC(=O)c1ccc[n+]([C@@H]2O[C@H](COP(=O)(O)OP(=O)(O)OC[C@H]3O[C@@H](n4cnc5c(N)ncnc54)[C@H](O)[C@@H]3O)[C@@H](O)[C@H]2O)c1 | pH 8, 25 °C, cofactor varied | 9 M⁻¹ s⁻¹
B2 (TcA) | O=c1[nH]c(=O)c2[nH]cnc2[nH]1 | pH 8.3, 37 °C, apparent, together with: PRPP 1 mM, MgCl2 12 mM | 30 ± 8 M⁻¹ s⁻¹
B3 (putA E1012A) | O=C(O)[C@@H]1CCCN1 | pH 8, 23 °C | 1300 ± 270 M⁻¹ s⁻¹
POLK (Homo sapiens, UniProt Q9UBT6) | Cc1cn([C@H]2C[C@H](O)[C@@H](COP(=O)(O)OP(=O)(O)OP(=O)(O)O)O2)c(=O)[nH]c1=O | pH 8, 37 °C, misinsertion opposite dT, together with: Mg2+ | 16.7 M⁻¹ s⁻¹
B4 (Tat) | CCCCC(=O)C(=O)O | pH 7, 38 °C, together with: PLP | 333 M⁻¹ s⁻¹
B5 (Nudt8) | CCCCCC(=O)SCCNC(=O)CCNC(=O)[C@H](O)C(C)(C)COP(=O)(O)OP(=O)(O)OC[C@H]1O[C@@H](n2cnc3c(N)ncnc32)[C@H](O)[C@@H]1OP(=O)(O)O | pH 8.5, together with: 2 mM Mn2+ | 9830 M⁻¹ s⁻¹
ALDH7A1 (Homo sapiens, UniProt P49419) | N[C@@H](CCCC=O)C(=O)O | pH 8, 26 °C, together with: NAD+ 2.5 mM | 4700 ± 600 M⁻¹ s⁻¹
B6 (sacB S173A) | OC[C@H]1O[C@@](CO)(O[C@H]2O[C@H](CO)[C@@H](O)[C@H](O)[C@H]2O)[C@@H](O)[C@@H]1O | pH 6.6 | 970 M⁻¹ s⁻¹
B7 (enzyme) | Nc1nc2c(ncn2[C@@H]2O[C@H](CO)[C@@H](O)[C@H]2O)c(=O)[nH]1 | pH 8 | 58700 M⁻¹ s⁻¹
B8 (ASRGL1) | N[C@@H](CC(=O)N[C@@H](Cc1ccccc1)C(=O)O)C(=O)O | pH 7.4, 37 °C, NaCl 100 mM | 8000 ± 1300 M⁻¹ s⁻¹
B9 (TylM1 H123A) | Cc1cn([C@H]2C[C@H](O)[C@@H](COP(=O)(O)OP(=O)(O)O[C@H]3O[C@H](C)[C@@H](O)[C@H](N)[C@H]3O)O2)c(=O)[nH]c1=O | 25 °C, together with: SAM | 69 ± 5 M⁻¹ s⁻¹
B10 (CstB) | N[C@@H](CSS)C(=O)N[C@H]1[C@@H](O[C@@H](CC(=O)O)C(=O)O)O[C@H](CO)[C@@H](O)[C@@H]1O | pH 6, 25 °C, NaBr 100 mM, air-saturated, together with: Fe(II), O2 | 10900 ± 2800 M⁻¹ s⁻¹
B11 (BaiA1) | C[C@H](CCC(=O)SCCNC(=O)CCNC(=O)[C@H](O)C(C)(C)COP(=O)(O)OP(=O)(O)OC[C@H]1O[C@@H](n2cnc3c(N)ncnc32)[C@H](O)[C@@H]1OP(=O)(O)O)[C@H]1CC[C@H]2[C@@H]3CC[C@@H]4C[C@H](O)CC[C@]4(C)[C@H]3CC[C@]12C | pH 8.7, 37 °C, together with: NAD+ | 33300 M⁻¹ s⁻¹
PRP43 (Saccharomyces cerevisiae, UniProt P53131) | O=c1ccn([C@@H]2O[C@H](COP(=O)(O)OP(=O)(O)OP(=O)(O)O)[C@@H](O)[C@H]2O)c(=O)[nH]1 | pH 8 | 81500 ± 4200 M⁻¹ s⁻¹
protein (Actinidia deliciosa, UniProt C7SHN9) | CC(C)=CCC/C(C)=C/COP(=O)(O)OP(=O)(O)O | pH 7.5, together with: GPP 1-100 µM | 11000 ± 700 M⁻¹ s⁻¹
B12 (UCK2) | Nc1ccn([C@@H]2O[C@H](CO)[C@@H](O)[C@H]2O)c(=O)n1 | pH 7.2, 25 °C, KCl 100 mM, together with: ATP 100–200 µM | 100000 M⁻¹ s⁻¹

Some of these lines once more:
Molecule | substrate | conditions | kcat/Km
B4 (Tat) | CCCCC(=O)C(=O)O | pH 7, 38 °C, together with: PLP | 333 M⁻¹ s⁻¹
B5 (Nudt8) | CCCCCC(=O)SCCNC(=O)CCNC(=O)[C@H](O)C(C)(C)COP(=O)(O)OP(=O)(O)OC[C@H]1O[C@@H](n2cnc3c(N)ncnc32)[C@H](O)[C@@H]1OP(=O)(O)O | pH 8.5, together with: 2 mM Mn2+ | 9830 M⁻¹ s⁻¹
